Assay results pooled from the literature.
Each numbered part is a random draw from the data of one study; scales do not carry over between parts. Positions count from the first letter of the parent shown.

Study 1
Target: Interferon regulatory factor 7, full length, phosphomimetic (IRF7, Homo sapiens, UniProt Q92985, residues 1-503, S101K/S471D/S472D/S475D/S476D/S477D/S483D/S484D/S487D)
Technique: protein-binding microarray
Form: double-stranded DNA, one strand shown
Medium: in vitro
Tested at: 250 nM
Setting: 60-bp whole probe
Added: salmon DNA 0.4 mg/ml
Reference: random background probes
Reading: higher = stronger binding
Constant ends, left off below: GCCTAGCAC … GTCTTGATTCGCTTGACGCTGCTG
Residues (chain): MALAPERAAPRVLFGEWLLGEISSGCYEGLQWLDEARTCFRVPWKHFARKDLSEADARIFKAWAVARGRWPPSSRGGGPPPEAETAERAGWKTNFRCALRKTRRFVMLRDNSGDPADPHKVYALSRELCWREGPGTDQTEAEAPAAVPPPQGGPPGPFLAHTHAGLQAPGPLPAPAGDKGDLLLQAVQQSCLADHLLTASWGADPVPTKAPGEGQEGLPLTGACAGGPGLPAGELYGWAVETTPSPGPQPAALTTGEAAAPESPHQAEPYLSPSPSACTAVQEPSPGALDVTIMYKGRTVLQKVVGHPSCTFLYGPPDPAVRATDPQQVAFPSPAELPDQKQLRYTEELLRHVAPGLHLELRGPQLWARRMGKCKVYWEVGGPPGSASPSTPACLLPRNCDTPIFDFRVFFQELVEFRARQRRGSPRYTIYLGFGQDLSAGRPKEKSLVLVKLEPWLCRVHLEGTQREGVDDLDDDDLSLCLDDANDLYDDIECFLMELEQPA
For `TTAGGTTTCCTTTCCCTTTCGTGCTAG`, the log fluorescence was 4.5 z-score.
For `GACGGTATCGGTTTCGGAACGTGCTAG`, the log fluorescence was 8.93 z-score.
`TTAGGAATGGACACTGGGTTAGTGCTA` has a log fluorescence of -0.423 z-score.
`TTAGGTTTGCTTTTCCTTTAGTGCTAG` gave a log fluorescence of 1.58 z-score.
With `TGGGAAATTCCTCTGAATAGGTGCTAG` the log fluorescence was 0.136 z-score.
For `GACGGTTTCCTTTCGCTGACGTGCTAG`, the log fluorescence was 7.39 z-score.
`TCATACTTCACTCTCTGACTGTGCTAG` has a log fluorescence of 0.281 z-score.
With `TTAGATCTCAGTCTCGTTTAGTGCTAG` the log fluorescence was 2.15 z-score.
With `TTGGATTTCAGTATCGATTAGTGCTAG` the log fluorescence was 0.879 z-score.
With `GAAGGTCTCCTTCTCCTGACGTGCTAG` the log fluorescence was 0.105 z-score.
The log fluorescence of `TTAGGAATGGGTCTCGGTTAGTGCTAG` is reported as 1 z-score.
With `GAAGATGTGTATATGACAATGTGCTAG` the log fluorescence was -0.561 z-score.
With `GTCGATTTCAGTTTCGAGACGTGCTAG` the log fluorescence was 6.03 z-score.
`TTAGGACTCGGACTGGGTTAGTGCTAG` gave a log fluorescence of 0.472 z-score.
`ACTGCATTCCCTTTCTCAACGTGCTAG` has a log fluorescence of 0.984 z-score.
For `TTAGGTGTCGGTTTCGGTTAGTGCTAG`, the log fluorescence was 7.88 z-score.
The log fluorescence of `ATAGATTTCAGTATCGATTAGTGCTAG` is reported as 1.11 z-score.
The log fluorescence of `CAACCAATCATTTTTGCTTAGTGCTAG` is reported as -0.403 z-score.

Study 2
Target: Ras GTPase-activating protein-binding protein 1, full length (G3BP1, Homo sapiens, UniProt Q13283)
UniProt Q13283, sequence (whole entry, looked up): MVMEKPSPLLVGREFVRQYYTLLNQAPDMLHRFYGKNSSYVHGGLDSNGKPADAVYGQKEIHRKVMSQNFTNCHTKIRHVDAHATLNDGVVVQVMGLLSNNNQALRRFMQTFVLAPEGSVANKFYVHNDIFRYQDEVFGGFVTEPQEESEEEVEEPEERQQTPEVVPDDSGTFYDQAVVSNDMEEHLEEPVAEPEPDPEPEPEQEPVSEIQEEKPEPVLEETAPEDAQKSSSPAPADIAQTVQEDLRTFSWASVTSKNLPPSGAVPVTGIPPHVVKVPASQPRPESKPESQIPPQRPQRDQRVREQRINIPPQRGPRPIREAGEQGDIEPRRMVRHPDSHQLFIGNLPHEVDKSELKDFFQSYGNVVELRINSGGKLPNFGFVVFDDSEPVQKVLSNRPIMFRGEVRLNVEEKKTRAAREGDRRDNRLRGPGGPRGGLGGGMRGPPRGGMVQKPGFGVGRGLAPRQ
Technique: RNA Bind-n-Seq
Form: RNA
Medium: in vitro
Tested at: 200 nM
Setting: whole 134-nt RNA, ends assumed
Added: 150 mM KCl
Reference: input library
Reading: higher = stronger binding
For `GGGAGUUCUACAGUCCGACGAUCUGGGAGGUGGAUUUUGUUUAUUUUUUUAGCUCAUUUCCAGGGGUGGGAAUUUUUUUUUAAUAUGCGUCAUGAAUAAAGUUGUUUUUGAAAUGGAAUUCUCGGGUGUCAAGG`, the log2 enrichment was 0.0332.
With `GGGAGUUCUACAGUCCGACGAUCUGCAUCUGCACUGGAGAAAUGGAAGACAGCAAUCCGGGAAGCUCAGACUUUCUCCAGGAUGCACGUGCUGCUUGGGAUGCUUGAUGCCUGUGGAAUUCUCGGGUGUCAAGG` the log2 enrichment was -0.368.
With `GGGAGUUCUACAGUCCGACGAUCCCUCAAGUCCUGUGCUACACAUCGUAUGUACCGAAUCGGAGGAAAGGUUUGGAAAGUAUUAUGUUACGCCGUUCGGAUCUGCACUUCCAGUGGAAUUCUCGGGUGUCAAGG` the log2 enrichment was -0.213.
For `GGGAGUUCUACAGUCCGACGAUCCAAUGGGAAUGGACCAAAGAGUUUCAGGGAAACUCCAGUAUAUUCCAGAGUCAGAUCUAAGCUCCAGGCACGCCUGAAGAUGUGUUGCUAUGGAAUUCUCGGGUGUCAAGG`, the log2 enrichment was -0.0499.
For `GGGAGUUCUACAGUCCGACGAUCACCAUGCAGGUGGGCAUCUUUGGGAAGUGGGGCAAGGGGGGGAUAGGGAGGGGUGUAACACUUUGGGAACAGGUGGUCCCAGGUCGUUUCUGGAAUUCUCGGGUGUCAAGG`, the log2 enrichment was 1.23.
`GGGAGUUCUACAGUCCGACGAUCCCUGUGCUACACAUCGUAUGUACCGAAUCGGAAAAAAGGGAAAAAAGGGGAAAAAAGGGGAAAGUAUUAUGUUACGCCGUUCGGAUCUGCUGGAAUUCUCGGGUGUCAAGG` gave a log2 enrichment of -0.495.
The log2 enrichment of `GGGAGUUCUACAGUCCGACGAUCAGUCCUGUGCUACACAUCGUAUGUACCGAAUCGGGGAAAGGGGAAAAAGGGGAGGGGAAAGUAUUAUGUUACGCCGUUCGGAUCUGCACUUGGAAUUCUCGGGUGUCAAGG` is reported as 0.616.
For `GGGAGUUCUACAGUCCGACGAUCCAAGUCCUGUGCUACACAUCGUAUGUACCGAAUCGGGAGGGAAAGGGUUUUUGGGAAAGUAUUAUGUUACGCCGUUCGGAUCUGCACUUCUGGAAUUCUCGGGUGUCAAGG`, the log2 enrichment was 0.475.
`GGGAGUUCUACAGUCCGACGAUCCCUCAAGUCCUGUGCUACACAUCGUAUGUACCGAAUCGGUGGAAAAAGGUGGAAAGUAUUAUGUUACGCCGUUCGGAUCUGCACUUCCAGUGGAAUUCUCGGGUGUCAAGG` has a log2 enrichment of -0.035.
The log2 enrichment of `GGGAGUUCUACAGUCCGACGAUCUGGCCCUGGUGGCAUGCGGGGAGGAAGAGGUGGCCUCAUGGAUCGUGGUGGUCCCGGUGGAAUGUUCAGAGGUGGCCUUGGUGGAGACAGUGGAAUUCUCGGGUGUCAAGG` is reported as 0.271.

Study 3
Target: NFE2, bZIP domain (human)
Technique: DHFR protein complementation
Medium: yeast
Setting: single substitutions, most at no-binding floor
Reference: wild-type JUN-FOS pair
Reading: higher = stronger binding
Starting sequence: JUN, bZIP domain (human); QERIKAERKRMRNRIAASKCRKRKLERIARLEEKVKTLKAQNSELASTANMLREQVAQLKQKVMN; partner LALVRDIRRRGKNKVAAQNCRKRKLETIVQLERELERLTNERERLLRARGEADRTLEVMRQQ
With `T48H` the binding fitness was -1.45 natural log.
For `K36P`, the binding fitness was -1.41 natural log.
With `E32M` the binding fitness was -1.41 natural log.
With `S43P` the binding fitness was -1.52 natural log.
`L38Q` has a binding fitness of -1.51 natural log.
`R30G` has a binding fitness of -1.43 natural log.
With `N42T` the binding fitness was -1.44 natural log.
For `S47I`, the binding fitness was -1.39 natural log.
`R30Y` has a binding fitness of -1.48 natural log.

Study 4
Target: CCNF, cyclin fold, Cln2 fusion (human)
Technique: yeast growth competition, sequencing
Medium: yeast
Setting: weak parent motif
Reference: not given
Reading: higher = stronger binding
Starting sequence: MASTL docking peptide (human); PMIAKNLMCELDE
`M2Q` — result for “normalised enrichment score”: 0.15.
`E10T`: “normalised enrichment score” -0.23.
`M2N`: “normalised enrichment score” 0.0442.
Under “normalised enrichment score”, `E10M` is recorded as 0.377.
Under “normalised enrichment score”, `L11A` is recorded as 0.15.
`K5M` — result for “normalised enrichment score”: -0.206.
`M8L` — result for “normalised enrichment score”: 0.107.
`M8I`: “normalised enrichment score” -0.209.
For `I3H`, “normalised enrichment score” read -0.243.
For `E10S`, “normalised enrichment score” read 0.132.
`I3K`: “normalised enrichment score” 0.0481.
Under “normalised enrichment score”, `M2S` is recorded as 0.154.
`N6V`: “normalised enrichment score” 0.213.
Under “normalised enrichment score”, `E10P` is recorded as -0.0828.
`M8N`: “normalised enrichment score” -0.55.
`A4D`: “normalised enrichment score” -0.192.
`A4Q`: “normalised enrichment score” -0.488.
For `M8R`, “normalised enrichment score” read -0.0552.
For `E10H`, “normalised enrichment score” read 0.217.
Under “normalised enrichment score”, `A4K` is recorded as 0.38.
Under “normalised enrichment score”, `A4R` is recorded as 0.489.
For `E10Q`, “normalised enrichment score” read 0.0926.
`D12N` — result for “normalised enrichment score”: -0.0168.
`C9P` — result for “normalised enrichment score”: 0.479.
`A4C` — result for “normalised enrichment score”: 0.272.

Study 5
Target: ABI1, truncated, D143A, DHFR fusion (Arabidopsis thaliana)
Technique: DHFR PCA, deep sequencing
Medium: yeast
Setting: methotrexate growth selection, single substitutions
Added: (+)-ABA 1.4 µM
Reference: wild-type fitted maximum
Reading: higher = stronger binding
Starting sequence: PYL1, truncated, DHFR fusion (Arabidopsis thaliana); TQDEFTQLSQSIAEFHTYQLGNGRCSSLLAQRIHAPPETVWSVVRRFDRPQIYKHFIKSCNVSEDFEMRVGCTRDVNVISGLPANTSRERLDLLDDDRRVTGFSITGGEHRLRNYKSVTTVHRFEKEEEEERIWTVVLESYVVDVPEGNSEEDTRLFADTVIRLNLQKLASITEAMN; partner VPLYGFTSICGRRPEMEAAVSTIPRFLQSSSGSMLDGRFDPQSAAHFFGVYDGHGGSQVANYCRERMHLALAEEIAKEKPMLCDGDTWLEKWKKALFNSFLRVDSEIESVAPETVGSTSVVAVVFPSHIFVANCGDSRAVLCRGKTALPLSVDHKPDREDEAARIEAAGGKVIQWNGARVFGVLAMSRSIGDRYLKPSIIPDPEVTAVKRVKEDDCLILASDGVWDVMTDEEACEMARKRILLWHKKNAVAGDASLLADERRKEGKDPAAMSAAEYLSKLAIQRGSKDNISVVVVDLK
`L82H` — result for “relative binding score”: 8.98%.
`L82E` — result for “relative binding score”: -2.03%.
Under “relative binding score”, `R123I` is recorded as 3.27%.
`K168S`: “relative binding score” 61.9%.
For `I133K`, “relative binding score” read 44.9%.
Under “relative binding score”, `F56S` is recorded as -6.17%.
`V43I` — result for “relative binding score”: 60.1%.
`R46F`: “relative binding score” -50.9%.
`P83A` — result for “relative binding score”: 20.9%.
For `V121H`, “relative binding score” read -8.66%.
`G108Q` — result for “relative binding score”: -4.5%.
For `T154S`, “relative binding score” read -16.4%.
`Q167H` — result for “relative binding score”: 34.8%.

Study 6
Target: Sal-like protein 4, full length isoform A (SALL4, Homo sapiens, UniProt Q9UJQ4, residues 1-1053)
UniProt Q9UJQ4, sequence (whole entry, looked up): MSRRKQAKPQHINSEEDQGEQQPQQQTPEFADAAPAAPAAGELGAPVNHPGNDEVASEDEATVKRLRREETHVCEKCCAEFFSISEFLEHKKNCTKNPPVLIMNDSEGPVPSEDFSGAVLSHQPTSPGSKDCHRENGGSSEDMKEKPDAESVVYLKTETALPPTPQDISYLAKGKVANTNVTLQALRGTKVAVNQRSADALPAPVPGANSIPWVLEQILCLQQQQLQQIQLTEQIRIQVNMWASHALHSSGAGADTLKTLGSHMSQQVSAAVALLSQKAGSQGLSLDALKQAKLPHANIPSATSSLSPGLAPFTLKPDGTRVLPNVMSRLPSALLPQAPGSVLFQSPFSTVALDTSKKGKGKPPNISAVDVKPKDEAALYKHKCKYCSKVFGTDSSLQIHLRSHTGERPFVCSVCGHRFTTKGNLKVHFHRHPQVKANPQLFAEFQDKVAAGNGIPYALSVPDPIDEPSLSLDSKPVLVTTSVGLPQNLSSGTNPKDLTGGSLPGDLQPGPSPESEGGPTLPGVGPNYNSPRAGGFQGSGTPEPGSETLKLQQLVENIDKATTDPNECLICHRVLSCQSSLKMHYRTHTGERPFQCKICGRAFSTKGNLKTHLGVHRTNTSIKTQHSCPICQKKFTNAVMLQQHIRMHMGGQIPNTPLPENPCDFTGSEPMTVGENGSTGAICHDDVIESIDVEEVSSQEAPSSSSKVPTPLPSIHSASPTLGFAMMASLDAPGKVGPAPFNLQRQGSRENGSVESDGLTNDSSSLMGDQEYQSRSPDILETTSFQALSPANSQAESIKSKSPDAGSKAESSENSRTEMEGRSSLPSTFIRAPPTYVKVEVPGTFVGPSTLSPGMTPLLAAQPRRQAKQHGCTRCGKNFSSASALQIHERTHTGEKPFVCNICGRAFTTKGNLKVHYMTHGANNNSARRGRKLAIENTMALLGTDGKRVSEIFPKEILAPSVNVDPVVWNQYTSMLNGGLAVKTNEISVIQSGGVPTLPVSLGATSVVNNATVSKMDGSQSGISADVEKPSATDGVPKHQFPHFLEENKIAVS
Technique: universal PBM
Form: double-stranded DNA, one strand shown
Medium: in vitro
Tested at: 600 nM
Setting: 8-mer, flanks averaged, mean of replicates
Reading: higher = stronger binding
`AAACCGAT` gave an E-score of 0.0255.
With `CGCACTGA` the E-score was -0.267.
The E-score of `GTAGCTAC` is reported as 0.0175.
The E-score of `AGGGAGCG` is reported as -0.232.
For `ACTAACAA`, the E-score was 0.171.
For `AGAGACCA`, the E-score was -0.107.
With `ATGCTACA` the E-score was 0.116.
`ACCATCTG` gave an E-score of -0.252.
With `ACATGAGA` the E-score was 0.242.
`CACGTCAC` gave an E-score of 0.0315.
For `CCACTGAC`, the E-score was -0.165.
`TTACTCAA` has an E-score of 0.264.
With `CATCGACC` the E-score was -0.0703.
For `CAGAATGC`, the E-score was -0.000135.
With `CATCATGG` the E-score was -0.0755.
For `GGATGGAA`, the E-score was -0.033.
The E-score of `ATCCTAGA` is reported as 0.0519.

Some of these lines once more (study 6):
`AAACCGAT` gave an E-score of 0.0255.
With `CGCACTGA` the E-score was -0.267.
The E-score of `GTAGCTAC` is reported as 0.0175.
The E-score of `AGGGAGCG` is reported as -0.232.
For `ACTAACAA`, the E-score was 0.171.
For `AGAGACCA`, the E-score was -0.107.
With `ATGCTACA` the E-score was 0.116.
`ACCATCTG` gave an E-score of -0.252.
With `ACATGAGA` the E-score was 0.242.
`CACGTCAC` gave an E-score of 0.0315.
For `CCACTGAC`, the E-score was -0.165.
`TTACTCAA` has an E-score of 0.264.
With `CATCGACC` the E-score was -0.0703.
